{"data": "Published values collected from several papers", "note": "Parts stem from different laboratories: compare values within a part only."}
{"data": "Sample 1", "target": "Fragile X messenger ribonucleoprotein 1, C-terminal low-complexity region (Fmr1, Mus musculus, UniProt P35922)", "technique": "RNA Bind-n-Seq", "molecule type": "RNA", "sample": "in vitro", "tested at": "200 nM", "setting": "whole 134-nt RNA, ends assumed", "with": "150 mM LiCl", "baseline": "input library", "direction": "higher = stronger binding", "each molecule": "7-deaza-guanosine replaces G", "all sequences stand within": "GGGAGUUCUACAGUCCGACGAUC … UGGAAUUCUCGGGUGUCAAGG"}
{"Strand": "UCAAGUCCUGUGCUACACAUCGUAUGUACCGAAUCGGGAAAGGGAAAGGAAAGGAAAGUAUUAUGUUACGCCGUUCGGAUCUGCACUUCC", "log2 enrichment": -1.3}
{"Strand": "UCCUGUGCUACACAUCGUAUGUACCGAAUCGGGGUUUUUGGGGUUUUUGGUUUUUGGGGAAAGUAUUAUGUUACGCCGUUCGGAUCUGCA", "log2 enrichment": -1.07}
{"Strand": "GCAGGAAGUAAAAACAAAUGGAAAUGCUUCGGAUAGUGGCAGGGGUGGGGGUUGCUAAGGAAAGAAAGGGAUGGGAGUGGGUAAAGAGUU", "log2 enrichment": 1.46}
{"Strand": "CACAGACAACACGGACCCACACAGACACAGAGGGAAGGGGUUGGGAUGGGGACAGGGUGCACAGCAGGGCGGGGUAGGACCCCAGCCCCU", "log2 enrichment": -0.838}
{"Strand": "CUGUGCUACACAUCGUAUGUACCGAAUCGGGCCCCCCCGGGCCCCCCCGGCCCCCCCGGGGAAAGUAUUAUGUUACGCCGUUCGGAUCUG", "log2 enrichment": -0.283}
{"data": "Sample 2", "target": "Phosphate system positive regulatory protein PHO4, full length, GST-tagged (PHO4, Saccharomyces cerevisiae, UniProt P07270, residues 1-312)", "technique": "competition protein-binding microarray", "molecule type": "double-stranded DNA, one strand shown", "sample": "in vitro", "tested at": "2 µM", "setting": "whole 60-bp probe, lowest competitor level", "with": "Cbf1 competitor, 0.05 µM", "direction": "higher = stronger binding", "all sequences stand within": "… GTCTTGATTCGCTTGACGCTGCTG", "Target sequence (chain)": "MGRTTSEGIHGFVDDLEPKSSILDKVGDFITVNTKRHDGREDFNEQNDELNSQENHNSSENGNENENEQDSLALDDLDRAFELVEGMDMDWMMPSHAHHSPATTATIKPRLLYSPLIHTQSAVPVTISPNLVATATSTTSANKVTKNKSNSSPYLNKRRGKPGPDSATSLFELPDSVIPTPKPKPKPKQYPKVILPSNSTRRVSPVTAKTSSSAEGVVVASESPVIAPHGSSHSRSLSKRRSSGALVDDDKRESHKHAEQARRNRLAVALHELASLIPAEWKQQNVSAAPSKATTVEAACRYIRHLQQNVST"}
{"Strand": "ATATCCCATCAACTACACGTGCCAGACCAGTTAAAG", "fluorescence intensity": "18100 a.u."}
{"Strand": "CATACCCAACCTTGAGCGGTGGGTGAAGATATTTGT", "fluorescence intensity": "3720 a.u."}
{"Strand": "TTCCTAAAGGAGCCCGGCGTGCCAGCCATCAGAATT", "fluorescence intensity": "6960 a.u."}
{"Strand": "GTTACCATTGTCCATCACGATCAAGAAACTCGCTGT", "fluorescence intensity": "4430 a.u."}
{"Strand": "AGATTATTACAAGTGGTCGTGATGGACGTAAAGTTT", "fluorescence intensity": "6020 a.u."}
{"Strand": "TCCCTGTGGATCCATCACGTGTGGATTAGGAGCAAA", "fluorescence intensity": "14000 a.u."}
{"data": "Sample 3", "target": "Interferon regulatory factor 3, full length, phosphomimetic (IRF3, Homo sapiens, UniProt Q14653, residues 1-427, S386D/S396D/S398D/S402D/T404D/S405D)", "technique": "protein-binding microarray", "molecule type": "double-stranded DNA, one strand shown", "sample": "in vitro", "tested at": "2540 nM top", "setting": "60-bp whole probe", "with": "salmon DNA 0.4 mg/ml", "baseline": "random background probes", "direction": "higher = stronger binding", "all sequences stand within": "GCCTAGCAC … GTCTTGATTCGCTTGACGCTGCTG", "Construct (chain)": "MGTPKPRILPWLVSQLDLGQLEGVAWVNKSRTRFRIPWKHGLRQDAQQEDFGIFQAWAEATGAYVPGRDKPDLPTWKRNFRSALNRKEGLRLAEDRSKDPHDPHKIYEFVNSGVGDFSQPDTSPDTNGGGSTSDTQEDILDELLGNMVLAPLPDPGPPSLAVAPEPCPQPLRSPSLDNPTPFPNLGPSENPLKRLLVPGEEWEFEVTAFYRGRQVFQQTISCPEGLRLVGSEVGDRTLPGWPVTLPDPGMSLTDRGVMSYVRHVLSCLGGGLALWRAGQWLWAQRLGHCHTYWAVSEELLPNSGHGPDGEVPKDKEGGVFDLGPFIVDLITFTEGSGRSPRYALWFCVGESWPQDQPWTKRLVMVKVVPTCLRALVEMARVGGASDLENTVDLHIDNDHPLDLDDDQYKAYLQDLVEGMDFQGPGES"}
{"Strand": "TCATTTTACTTTCTATCACTGTGCTAG", "fitted relative affinity [z-score]": 3.88}
{"Strand": "GACGGTCTCCTACTGCTAACGTGCTAG", "fitted relative affinity [z-score]": 1.25}
{"Strand": "GACGAACTGAGATTGGAGACGTGCTAG", "fitted relative affinity [z-score]": -0.107}
{"Strand": "TTCGAACTGAGTCTCGATTAGTGCTAG", "fitted relative affinity [z-score]": -0.0892}
{"Strand": "TTAGGACTCGACACTGGGTTAGTGCTA", "fitted relative affinity [z-score]": -0.656}
{"data": "Mixed results"}
{"Substance": "PhoQ, residues 284 288 289 292 302 303 SIHMAM", "target": "PhoP, residues 12 14 15 18 19 VHSCL (Escherichia coli, UniProt P23836)", "test": "Sort-seq, measured: YFP reporter", "system": "E. coli", "conditions": "PhoQ-PhoP variant library, with: 10 µM Mg2+", "how to read": "baseline: high Mg2+ state, higher = stronger signaling", "endpoint": "fold induction", "value": 5.29}
{"note": "Some of these lines once more (sample 2):"}
{"Strand": "ATATCCCATCAACTACACGTGCCAGACCAGTTAAAG", "fluorescence intensity": "18100 a.u."}
